Experimental data of several laboratories.
Protocols differ between the studies behind these lines. ± gives the spread as reported.
UniProt P23977, sequence (whole entry, looked up): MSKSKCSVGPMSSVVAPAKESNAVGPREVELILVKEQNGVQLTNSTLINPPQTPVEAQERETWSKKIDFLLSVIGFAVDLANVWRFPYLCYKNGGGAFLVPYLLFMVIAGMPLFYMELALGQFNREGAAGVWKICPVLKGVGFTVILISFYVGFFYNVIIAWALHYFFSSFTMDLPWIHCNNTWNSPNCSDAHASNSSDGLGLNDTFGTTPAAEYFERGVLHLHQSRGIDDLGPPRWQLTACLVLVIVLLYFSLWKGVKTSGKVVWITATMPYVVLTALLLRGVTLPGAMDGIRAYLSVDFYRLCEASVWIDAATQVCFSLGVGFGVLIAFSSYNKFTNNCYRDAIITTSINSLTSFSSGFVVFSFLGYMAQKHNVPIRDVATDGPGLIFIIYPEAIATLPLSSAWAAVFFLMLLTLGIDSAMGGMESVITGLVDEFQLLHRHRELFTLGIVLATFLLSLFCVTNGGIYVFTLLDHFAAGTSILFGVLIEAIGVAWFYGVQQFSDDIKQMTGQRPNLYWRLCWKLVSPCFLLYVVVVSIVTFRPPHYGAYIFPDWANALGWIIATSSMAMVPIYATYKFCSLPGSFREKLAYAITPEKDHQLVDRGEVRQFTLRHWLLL
UniProt Q8NET8, sequence (whole entry, unmodified, looked up): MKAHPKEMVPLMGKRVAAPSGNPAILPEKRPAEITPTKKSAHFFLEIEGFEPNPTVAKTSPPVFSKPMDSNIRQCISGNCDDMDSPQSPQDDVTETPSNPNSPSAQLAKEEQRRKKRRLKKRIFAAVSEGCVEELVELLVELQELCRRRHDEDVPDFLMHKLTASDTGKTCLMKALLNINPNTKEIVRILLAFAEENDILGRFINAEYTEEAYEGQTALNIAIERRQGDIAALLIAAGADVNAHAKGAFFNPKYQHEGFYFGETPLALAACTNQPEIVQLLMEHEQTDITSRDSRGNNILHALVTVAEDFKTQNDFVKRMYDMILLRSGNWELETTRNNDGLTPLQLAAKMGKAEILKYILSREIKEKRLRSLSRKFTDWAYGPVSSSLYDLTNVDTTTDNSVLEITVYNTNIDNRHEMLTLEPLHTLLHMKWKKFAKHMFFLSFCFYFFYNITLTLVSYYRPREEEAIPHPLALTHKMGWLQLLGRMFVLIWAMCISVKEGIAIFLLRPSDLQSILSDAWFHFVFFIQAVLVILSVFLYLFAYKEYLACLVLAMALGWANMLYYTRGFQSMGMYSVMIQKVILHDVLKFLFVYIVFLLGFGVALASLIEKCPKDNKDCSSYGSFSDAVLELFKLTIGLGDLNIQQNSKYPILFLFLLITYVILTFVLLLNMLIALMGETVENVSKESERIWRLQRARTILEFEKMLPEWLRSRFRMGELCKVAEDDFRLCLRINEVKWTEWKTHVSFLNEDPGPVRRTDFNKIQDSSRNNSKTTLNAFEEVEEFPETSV
UniProt P14867, sequence (whole entry, unmodified, looked up): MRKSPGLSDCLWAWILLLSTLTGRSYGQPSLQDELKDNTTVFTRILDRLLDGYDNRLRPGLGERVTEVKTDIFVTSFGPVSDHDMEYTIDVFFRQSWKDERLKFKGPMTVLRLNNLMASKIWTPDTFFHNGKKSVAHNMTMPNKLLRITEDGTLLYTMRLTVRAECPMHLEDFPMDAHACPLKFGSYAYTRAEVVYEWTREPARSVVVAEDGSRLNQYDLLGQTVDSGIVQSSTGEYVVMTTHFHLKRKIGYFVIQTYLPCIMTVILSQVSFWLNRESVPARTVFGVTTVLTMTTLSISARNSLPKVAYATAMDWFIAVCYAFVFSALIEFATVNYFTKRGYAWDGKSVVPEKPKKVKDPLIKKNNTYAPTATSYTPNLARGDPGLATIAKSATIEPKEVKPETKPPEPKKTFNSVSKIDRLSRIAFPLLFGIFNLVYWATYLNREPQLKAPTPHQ
UniProt Q8XFG0, sequence (whole entry, looked up): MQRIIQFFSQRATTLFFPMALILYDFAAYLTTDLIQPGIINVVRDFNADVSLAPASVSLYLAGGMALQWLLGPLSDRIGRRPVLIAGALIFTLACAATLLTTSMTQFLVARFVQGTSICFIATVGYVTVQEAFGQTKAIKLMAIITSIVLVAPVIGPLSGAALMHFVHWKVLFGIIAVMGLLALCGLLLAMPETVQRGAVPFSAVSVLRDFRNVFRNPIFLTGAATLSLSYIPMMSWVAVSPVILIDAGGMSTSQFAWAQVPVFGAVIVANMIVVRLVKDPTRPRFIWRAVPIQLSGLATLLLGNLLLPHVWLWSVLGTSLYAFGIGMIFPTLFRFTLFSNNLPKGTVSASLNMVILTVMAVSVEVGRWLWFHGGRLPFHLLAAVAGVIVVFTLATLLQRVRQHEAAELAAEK
UniProt P49116, sequence (whole entry, looked up): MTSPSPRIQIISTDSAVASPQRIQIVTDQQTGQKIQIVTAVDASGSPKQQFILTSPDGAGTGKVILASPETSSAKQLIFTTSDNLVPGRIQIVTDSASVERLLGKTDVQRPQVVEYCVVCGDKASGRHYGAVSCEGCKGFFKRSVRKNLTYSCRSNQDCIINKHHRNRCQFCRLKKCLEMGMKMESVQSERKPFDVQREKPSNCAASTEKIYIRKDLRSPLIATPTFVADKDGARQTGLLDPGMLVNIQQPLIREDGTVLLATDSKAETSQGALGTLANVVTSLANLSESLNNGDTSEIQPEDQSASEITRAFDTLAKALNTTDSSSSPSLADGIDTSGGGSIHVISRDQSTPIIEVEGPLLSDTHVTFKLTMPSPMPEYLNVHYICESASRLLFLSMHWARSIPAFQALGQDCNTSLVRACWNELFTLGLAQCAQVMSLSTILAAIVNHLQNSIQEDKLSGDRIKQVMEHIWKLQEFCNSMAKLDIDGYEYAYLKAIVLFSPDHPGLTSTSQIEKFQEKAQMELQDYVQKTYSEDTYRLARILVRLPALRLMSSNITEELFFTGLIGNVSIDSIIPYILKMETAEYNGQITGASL
UniProt P28472, sequence (whole entry, unmodified, looked up): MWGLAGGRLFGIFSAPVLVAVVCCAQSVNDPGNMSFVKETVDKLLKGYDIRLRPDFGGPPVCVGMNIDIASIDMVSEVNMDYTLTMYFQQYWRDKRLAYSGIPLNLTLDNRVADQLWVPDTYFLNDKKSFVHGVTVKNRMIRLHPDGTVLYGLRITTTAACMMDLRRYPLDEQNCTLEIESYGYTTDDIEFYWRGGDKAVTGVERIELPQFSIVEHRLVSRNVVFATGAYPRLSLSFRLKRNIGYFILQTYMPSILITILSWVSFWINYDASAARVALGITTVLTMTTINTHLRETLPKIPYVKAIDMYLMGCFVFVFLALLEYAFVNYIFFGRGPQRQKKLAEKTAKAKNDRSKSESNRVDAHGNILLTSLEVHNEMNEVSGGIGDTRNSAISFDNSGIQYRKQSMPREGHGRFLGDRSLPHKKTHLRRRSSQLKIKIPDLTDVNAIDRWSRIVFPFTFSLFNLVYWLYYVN
UniProt P31645, sequence (whole entry, looked up): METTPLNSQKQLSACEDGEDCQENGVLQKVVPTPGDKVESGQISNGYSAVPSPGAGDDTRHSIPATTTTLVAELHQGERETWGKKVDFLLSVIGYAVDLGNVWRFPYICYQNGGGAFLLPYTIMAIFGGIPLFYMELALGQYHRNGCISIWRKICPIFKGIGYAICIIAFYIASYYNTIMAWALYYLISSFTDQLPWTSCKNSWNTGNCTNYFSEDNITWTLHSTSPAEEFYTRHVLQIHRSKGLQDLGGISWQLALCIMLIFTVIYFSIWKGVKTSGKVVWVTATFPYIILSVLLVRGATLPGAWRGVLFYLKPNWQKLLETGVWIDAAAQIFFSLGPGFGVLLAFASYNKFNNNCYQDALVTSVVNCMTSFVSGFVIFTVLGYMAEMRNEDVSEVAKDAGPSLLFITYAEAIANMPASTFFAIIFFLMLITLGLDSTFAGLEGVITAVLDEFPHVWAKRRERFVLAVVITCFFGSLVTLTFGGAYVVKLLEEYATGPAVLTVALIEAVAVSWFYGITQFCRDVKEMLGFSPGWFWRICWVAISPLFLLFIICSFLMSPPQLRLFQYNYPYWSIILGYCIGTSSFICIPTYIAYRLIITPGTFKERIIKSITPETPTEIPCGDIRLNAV

| SMILES | target | assay | system | conditions | scale | quantity | value |
| --- | --- | --- | --- | --- | --- | --- | --- |
| O=C(N[C@H](CO)[C@H](O)c1ccc([N+](=O)[O-])cc1)C(Cl)Cl | Multidrug resistance protein MdtM (mdtM, Salmonella typhi, UniProt Q8XFG0) |  |  |  |  | Kd | 617 ± 21 nM |
| COC(=O)CCOC(=O)c1cncn1[C@H](C)c1ccccc1 | GABA-A receptor alpha-1/beta-3, with gamma-2 subunit (GABRA1/GABRB3, Homo sapiens, UniProt P14867+P28472, L291T) | direct receptor activation, agonist, two-electrode voltage clamp | Xenopus oocytes |  | reference: 100 µM GABA current | EC50 | 20000 nM |
| C[C@@H](Cc1ccccc1)N(C)Cc1ccccc1 | SLC6A4 (Homo sapiens, UniProt P31645) | inhibitor |  |  |  | IC50 | 80 nM |
| O=C(Cc1cccc([N+](=O)[O-])c1)N[C@H]1CCOC1=O | expR (Pectobacterium carotovorum, UniProt Q4KS34) |  |  |  |  | EC50 | 700 nM |
| C#CC[C@@H](N)C(=O)N[C@H](CO)C(=O)N[C@@H](C(=O)N[C@H](CO)C(=O)N[C@H](CCC(=O)O)C(=O)N[C@@H](C(=O)N[C@H](CCC(N)=O)C(=O)N[C@H](CC(C)C)C(=O)N[C@H](CCSC)C(=O)N[C@H](Cc1c[nH]cn1)C(=O)N[C@H](CC(N)=O)C(=O)N[C@H](CC(C)C)C(=O)NCC(=O)N[C@H](CCCCN)C(=O)N[C@H](Cc1c[nH]cn1)C(=O)N[C@H](CC(C)C)C(=O)NCC(=O)N[C@H](CO)C(=O)N[C@H](CCSC)C(=O)N[C@H](CCC(=O)O)C(=O)N[C@H](CCCNC(=N)N)C(=O)N[C@@H](C(=O)N[C@H](Cc1ccccc1)C(=O)N[C@H](C)C(=O)N[C@H](CC(C)C)C(=O)N[C@H](CCCNC(=N)N)C(=O)N[C@H](Cc1ccccc1)C(=O)N[C@H](CCCCN)C(=O)N[C@H](CC(C)C)C(=O)N[C@H](CCC(N)=O)C(=O)N[C@H](CC(C)C)C(=O)N[C@@H](C(N)=O)[C@H](C)CC)C(C)C)[C@H](C)CC)C(C)C | hemagglutinin influenza A/California/07/2009 H1N1 |  |  |  |  | Ki | 29000 nM |
| Cc1cccc(C(C)c2cnc[nH]2)c1C (stereo not drawn) | Nuclear receptor subfamily 2 group C member 2, ligand-binding domain (Homo sapiens, UniProt P49116) | binding |  |  |  | Kd | 0.821 nM |
| CNC(C)C(=O)c1ccc2c(c1)OCO2 (stereo not drawn) | Slc6a3 (Rattus norvegicus, UniProt P23977) |  |  | rat |  | EC50 | 220 ± 40 nM |
| CCCc1cc(O)c2c(c1)OC(C)(C)[C@@H]1CCC(C)=C[C@@H]21 | TRPV3 (Homo sapiens, UniProt Q8NET8, R696K) | calcium uptake, agonist | HEK293S | mutant R696K, site 3 |  | EC50 | 3880 ± 280 nM |
| C#CC[C@@H](N)C(=O)N[C@H](CO)C(=O)N[C@@H](C(=O)N[C@H](CO)C(=O)N[C@H](CCC(=O)O)C(=O)N[C@@H](C(=O)N[C@H](CCC(N)=O)C(=O)N[C@H](CC(C)C)C(=O)N[C@H](CCSC)C(=O)N[C@H](Cc1c[nH]cn1)C(=O)N[C@H](CC(N)=O)C(=O)N[C@H](CC(C)C)C(=O)NCC(=O)N[C@H](CCCCN)C(=O)N[C@H](Cc1c[nH]cn1)C(=O)N[C@H](CC(C)C)C(=O)NCC(=O)N[C@H](CO)C(=O)N[C@H](Cc1c[nH]c2ccccc12)C(=O)N[C@H](CCC(=O)O)C(=O)N[C@H](CCCNC(=N)N)C(=O)N[C@@H](C(=O)N[C@H](Cc1ccc(O)cc1)C(=O)N[C@H](Cc1ccccc1)C(=O)N[C@H](CC(C)C)C(=O)N[C@H](CCCNC(=N)N)C(=O)N[C@H](Cc1ccccc1)C(=O)N[C@H](CCCCN)C(=O)N[C@H](CC(C)C)C(=O)N[C@H](CCC(N)=O)C(=O)N[C@H](CC(C)C)C(=O)N[C@@H](C(N)=O)C(C)C)C(C)C)[C@H](C)CC)C(C)C | hemagglutinin influenza A/California/07/2009 H1N1 |  |  |  |  | Ki | 32000 nM |
